Measured values collected from several papers.
Protocols differ between the studies behind these lines. ± gives the spread as reported.
APP amyloid-beta peptide: Amyloid-beta precursor protein, amyloid-beta peptide (APP, Homo sapiens, UniProt P05067)

Amino acid sequences for entries named in this document (tags omitted). A change or cut given only in a name is not applied to a line headed by its entry. Residues count along the entry.
UniProt P05067, whole entry, looked up: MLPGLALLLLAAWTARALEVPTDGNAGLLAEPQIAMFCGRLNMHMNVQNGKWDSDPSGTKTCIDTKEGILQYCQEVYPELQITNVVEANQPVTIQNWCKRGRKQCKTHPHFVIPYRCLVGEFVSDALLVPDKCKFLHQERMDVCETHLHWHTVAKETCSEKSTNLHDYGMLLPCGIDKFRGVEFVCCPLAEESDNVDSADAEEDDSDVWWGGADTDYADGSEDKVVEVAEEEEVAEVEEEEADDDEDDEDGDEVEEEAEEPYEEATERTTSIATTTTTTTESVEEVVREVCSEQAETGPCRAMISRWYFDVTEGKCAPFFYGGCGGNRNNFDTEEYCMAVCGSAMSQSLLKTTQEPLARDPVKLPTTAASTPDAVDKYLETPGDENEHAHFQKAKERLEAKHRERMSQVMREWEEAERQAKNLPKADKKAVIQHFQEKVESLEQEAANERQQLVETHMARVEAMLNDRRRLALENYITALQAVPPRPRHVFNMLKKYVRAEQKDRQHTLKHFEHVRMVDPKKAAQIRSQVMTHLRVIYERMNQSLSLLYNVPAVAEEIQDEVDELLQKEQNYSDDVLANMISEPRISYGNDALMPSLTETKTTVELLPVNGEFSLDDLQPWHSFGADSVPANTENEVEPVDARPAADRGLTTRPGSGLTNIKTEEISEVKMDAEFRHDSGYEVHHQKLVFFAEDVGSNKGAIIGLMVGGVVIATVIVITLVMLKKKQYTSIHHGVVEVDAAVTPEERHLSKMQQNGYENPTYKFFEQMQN
UniProt A4HTR0, 1-443: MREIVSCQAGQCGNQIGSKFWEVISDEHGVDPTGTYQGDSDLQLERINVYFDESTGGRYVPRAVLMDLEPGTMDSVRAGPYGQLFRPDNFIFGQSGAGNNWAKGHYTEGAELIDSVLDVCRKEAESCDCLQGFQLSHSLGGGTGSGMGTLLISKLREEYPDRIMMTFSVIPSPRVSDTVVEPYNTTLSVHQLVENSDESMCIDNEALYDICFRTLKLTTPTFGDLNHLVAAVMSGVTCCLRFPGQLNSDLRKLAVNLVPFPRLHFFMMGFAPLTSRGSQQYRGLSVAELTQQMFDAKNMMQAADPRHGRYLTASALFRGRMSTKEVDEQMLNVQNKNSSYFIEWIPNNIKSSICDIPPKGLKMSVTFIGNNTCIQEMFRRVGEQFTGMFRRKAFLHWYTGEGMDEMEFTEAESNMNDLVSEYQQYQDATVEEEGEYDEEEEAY
UniProt Q13304, whole entry: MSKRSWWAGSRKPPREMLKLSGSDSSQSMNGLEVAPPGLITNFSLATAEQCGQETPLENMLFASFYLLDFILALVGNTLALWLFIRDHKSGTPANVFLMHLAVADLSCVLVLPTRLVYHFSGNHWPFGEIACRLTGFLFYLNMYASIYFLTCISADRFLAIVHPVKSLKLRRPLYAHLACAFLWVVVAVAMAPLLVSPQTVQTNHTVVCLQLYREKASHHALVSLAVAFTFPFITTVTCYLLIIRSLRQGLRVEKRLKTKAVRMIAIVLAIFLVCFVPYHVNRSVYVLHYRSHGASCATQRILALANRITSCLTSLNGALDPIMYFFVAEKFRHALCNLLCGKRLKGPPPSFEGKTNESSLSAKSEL
UniProt Q13164, whole entry: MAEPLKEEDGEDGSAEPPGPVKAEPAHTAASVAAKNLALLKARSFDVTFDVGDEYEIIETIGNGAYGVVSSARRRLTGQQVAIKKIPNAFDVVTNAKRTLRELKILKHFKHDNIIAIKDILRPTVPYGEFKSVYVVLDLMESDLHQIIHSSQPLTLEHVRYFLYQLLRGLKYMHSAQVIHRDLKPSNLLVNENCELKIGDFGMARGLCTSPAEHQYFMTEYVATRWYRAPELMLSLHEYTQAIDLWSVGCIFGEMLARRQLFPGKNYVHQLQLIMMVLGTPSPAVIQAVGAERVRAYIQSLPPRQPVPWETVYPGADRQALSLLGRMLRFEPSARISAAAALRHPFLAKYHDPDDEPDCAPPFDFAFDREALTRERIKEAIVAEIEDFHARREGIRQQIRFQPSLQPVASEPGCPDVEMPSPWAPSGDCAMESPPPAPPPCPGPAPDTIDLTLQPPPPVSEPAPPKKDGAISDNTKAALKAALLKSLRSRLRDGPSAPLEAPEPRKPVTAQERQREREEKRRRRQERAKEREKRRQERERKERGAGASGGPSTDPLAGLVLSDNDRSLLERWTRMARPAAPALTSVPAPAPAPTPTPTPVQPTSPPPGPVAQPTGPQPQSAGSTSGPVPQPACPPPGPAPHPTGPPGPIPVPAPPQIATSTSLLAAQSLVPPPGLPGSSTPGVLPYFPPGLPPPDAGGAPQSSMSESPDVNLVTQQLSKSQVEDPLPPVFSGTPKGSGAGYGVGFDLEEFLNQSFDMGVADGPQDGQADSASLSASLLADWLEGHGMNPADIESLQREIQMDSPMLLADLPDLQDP
UniProt P31421, 19-872 limits assumed: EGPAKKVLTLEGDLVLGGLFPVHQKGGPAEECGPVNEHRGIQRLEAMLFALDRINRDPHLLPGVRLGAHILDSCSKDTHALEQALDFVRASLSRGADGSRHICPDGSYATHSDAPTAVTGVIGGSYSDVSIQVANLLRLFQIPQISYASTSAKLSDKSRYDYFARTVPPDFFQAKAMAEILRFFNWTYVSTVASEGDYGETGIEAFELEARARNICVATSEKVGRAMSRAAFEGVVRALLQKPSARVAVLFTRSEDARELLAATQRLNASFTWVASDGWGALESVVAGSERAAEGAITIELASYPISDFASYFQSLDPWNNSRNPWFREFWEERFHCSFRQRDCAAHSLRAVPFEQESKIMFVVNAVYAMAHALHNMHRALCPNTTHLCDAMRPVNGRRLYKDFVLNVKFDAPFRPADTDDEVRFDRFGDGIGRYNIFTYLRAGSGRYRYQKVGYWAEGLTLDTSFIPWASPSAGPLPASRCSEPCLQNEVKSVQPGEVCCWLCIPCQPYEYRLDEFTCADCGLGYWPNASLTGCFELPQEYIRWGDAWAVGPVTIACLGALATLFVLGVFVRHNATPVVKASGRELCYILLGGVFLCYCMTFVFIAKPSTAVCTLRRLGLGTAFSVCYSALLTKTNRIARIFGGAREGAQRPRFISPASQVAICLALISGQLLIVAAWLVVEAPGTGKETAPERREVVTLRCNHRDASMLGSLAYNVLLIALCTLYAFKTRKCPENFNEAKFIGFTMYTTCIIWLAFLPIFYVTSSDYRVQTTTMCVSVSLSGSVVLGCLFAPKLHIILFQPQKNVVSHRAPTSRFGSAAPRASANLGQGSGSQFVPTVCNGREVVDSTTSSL
UniProt P50579, whole entry: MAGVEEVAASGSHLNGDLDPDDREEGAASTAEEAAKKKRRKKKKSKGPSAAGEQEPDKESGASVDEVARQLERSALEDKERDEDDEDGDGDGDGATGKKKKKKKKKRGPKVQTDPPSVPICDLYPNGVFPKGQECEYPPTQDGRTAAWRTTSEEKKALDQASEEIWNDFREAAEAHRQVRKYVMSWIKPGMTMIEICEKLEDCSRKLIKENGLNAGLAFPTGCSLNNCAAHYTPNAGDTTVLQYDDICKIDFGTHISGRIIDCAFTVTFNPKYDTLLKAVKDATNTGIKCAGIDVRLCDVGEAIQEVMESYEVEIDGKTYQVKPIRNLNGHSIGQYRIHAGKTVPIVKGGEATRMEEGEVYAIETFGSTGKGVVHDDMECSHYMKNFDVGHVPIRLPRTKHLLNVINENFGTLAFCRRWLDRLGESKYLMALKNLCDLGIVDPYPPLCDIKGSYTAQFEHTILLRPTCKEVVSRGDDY
UniProt P03372, whole entry: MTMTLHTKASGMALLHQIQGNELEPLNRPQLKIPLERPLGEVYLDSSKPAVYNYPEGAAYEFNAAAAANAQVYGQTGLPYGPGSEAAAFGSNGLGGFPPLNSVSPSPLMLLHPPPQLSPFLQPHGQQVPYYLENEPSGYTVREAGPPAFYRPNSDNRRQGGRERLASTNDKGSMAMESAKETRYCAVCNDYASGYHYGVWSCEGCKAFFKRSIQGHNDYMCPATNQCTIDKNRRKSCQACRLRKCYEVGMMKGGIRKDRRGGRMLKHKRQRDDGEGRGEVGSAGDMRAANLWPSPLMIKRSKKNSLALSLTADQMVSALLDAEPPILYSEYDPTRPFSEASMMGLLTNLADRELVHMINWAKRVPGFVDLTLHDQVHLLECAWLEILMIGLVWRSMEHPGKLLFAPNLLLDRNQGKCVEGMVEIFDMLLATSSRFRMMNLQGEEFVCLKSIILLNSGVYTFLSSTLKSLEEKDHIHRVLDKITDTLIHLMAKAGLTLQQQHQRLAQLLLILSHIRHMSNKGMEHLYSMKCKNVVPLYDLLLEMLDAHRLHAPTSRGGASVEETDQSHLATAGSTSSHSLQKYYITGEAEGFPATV
UniProt P00533, whole entry, looked up: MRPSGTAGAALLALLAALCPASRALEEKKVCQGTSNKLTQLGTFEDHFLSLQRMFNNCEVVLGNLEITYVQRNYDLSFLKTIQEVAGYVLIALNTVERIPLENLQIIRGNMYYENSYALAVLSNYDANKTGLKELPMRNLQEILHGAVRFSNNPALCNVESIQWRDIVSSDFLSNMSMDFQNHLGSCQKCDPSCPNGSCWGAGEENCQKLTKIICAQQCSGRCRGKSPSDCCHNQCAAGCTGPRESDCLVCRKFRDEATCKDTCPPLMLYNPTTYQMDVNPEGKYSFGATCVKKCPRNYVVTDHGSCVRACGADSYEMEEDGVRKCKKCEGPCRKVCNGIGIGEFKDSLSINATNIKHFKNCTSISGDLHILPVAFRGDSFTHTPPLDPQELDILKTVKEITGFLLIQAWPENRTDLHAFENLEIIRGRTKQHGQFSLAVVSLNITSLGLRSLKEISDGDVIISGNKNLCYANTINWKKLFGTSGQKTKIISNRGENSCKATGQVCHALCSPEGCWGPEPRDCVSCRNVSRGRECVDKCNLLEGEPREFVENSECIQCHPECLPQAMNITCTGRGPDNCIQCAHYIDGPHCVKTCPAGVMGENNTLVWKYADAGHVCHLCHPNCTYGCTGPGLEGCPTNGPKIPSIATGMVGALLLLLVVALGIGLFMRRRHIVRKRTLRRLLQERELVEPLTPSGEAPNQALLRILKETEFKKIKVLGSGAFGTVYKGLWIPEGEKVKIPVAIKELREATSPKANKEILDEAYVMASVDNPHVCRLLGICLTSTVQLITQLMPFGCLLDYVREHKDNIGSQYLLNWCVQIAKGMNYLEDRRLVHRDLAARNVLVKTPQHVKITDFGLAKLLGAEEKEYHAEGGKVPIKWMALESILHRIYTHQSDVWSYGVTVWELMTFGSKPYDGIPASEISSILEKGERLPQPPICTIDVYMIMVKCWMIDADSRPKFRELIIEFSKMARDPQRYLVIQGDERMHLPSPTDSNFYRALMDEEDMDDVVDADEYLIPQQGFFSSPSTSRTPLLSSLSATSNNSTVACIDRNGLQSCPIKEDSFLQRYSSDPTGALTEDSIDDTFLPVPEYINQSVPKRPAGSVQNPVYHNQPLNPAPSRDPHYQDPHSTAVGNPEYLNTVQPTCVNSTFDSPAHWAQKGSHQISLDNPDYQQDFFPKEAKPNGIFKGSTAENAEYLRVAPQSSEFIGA
UniProt Q8N884, whole entry: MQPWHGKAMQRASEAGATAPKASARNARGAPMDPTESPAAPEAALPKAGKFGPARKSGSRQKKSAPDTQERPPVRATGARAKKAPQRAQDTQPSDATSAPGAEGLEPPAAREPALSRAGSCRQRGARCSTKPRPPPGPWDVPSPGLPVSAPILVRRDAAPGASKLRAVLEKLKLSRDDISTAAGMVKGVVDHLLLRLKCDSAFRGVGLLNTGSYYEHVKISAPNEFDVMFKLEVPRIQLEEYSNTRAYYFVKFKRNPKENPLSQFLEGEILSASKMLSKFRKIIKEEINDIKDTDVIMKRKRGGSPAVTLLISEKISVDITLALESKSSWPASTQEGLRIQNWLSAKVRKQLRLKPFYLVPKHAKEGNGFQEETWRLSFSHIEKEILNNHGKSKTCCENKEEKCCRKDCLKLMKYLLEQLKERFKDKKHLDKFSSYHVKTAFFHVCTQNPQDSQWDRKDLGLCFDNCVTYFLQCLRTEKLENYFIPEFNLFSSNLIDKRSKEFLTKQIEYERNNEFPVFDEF
UniProt Q9Y251, whole entry, looked up: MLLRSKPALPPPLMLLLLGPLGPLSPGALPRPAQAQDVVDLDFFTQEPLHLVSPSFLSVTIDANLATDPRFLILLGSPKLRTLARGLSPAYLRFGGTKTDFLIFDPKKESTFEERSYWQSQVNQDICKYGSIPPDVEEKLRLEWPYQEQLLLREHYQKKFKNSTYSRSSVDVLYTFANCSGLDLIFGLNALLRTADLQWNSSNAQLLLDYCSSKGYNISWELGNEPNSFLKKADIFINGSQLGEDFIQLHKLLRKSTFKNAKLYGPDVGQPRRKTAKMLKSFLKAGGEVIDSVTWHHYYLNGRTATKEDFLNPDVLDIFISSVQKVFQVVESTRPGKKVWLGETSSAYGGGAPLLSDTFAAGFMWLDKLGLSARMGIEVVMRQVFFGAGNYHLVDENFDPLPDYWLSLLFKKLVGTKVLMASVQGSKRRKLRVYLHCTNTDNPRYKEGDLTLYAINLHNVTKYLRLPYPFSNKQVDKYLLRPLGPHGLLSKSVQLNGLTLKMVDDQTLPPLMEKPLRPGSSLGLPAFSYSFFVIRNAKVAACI

`O=C(Nc1ccc(-c2nc3ccccc3s2)cc1)c1cccc([N+](=O)[O-])c1` gave an IC50 of over 100000 nM (Moesin, with CD44 (Homo sapiens, UniProt P26038); MSN-CD44 interaction, inhibitor, TR-FRET; together with: CD44).
The IC50 of `Fc1ccc2[nH]cc(/C=C/c3cccnc3)c2c1` is reported as over 20000 nM (APP amyloid-beta peptide; Aβ42 oligomerisation, ELISA).
`COc1cccc(/C=N/NC(=O)c2cn(-c3nonc3N)nn2)c1O` has an IC50 of 19900 ± 3050 nM (SIRT6 (Homo sapiens, UniProt Q8N6T7); deacetylase activity, inhibitor, Fluor de Lys; together with: Ac-RHKK(Ac)-AMC substrate).
The IC50 of `COc1cc([C@@H]2c3cc4c(cc3[C@@H](OC(C)C)[C@H]3COC(=O)[C@H]23)OCO4)cc(OC)c1OC` is reported as 8800 ± 4500 nM (Tubulin alpha/beta heterodimer (Leishmania infantum, UniProt A0A381MCS3+A4HTR0); tubulin polymerization, inhibitor; 37 °C, together with: tubulin 1.2 mg/mL).
For `Cc1ccc(NC(=O)c2cccc(C(F)(F)F)c2)cc1Nc1ncccc1-c1cc(Nc2ccc(OCCNC(=O)CCCC(=O)NCc3ccc(COc4nc(N)nc5[nH]cnc45)cc3)cc2)ncn1`, the IC50 was 440 ± 30 nM (Proto-oncogene tyrosine-protein kinase Src, SH3-SH2-kinase domains (SRC, Gallus gallus, UniProt P00523); enzyme activity, inhibitor; unphosphorylated form, enzyme 10 nM).
The IC50 of `O=C(Nc1ccc(Cl)cc1)C(NS(=O)(=O)c1cccs1)c1cccc(F)c1` (stereo not shown) is reported as 14800 ± 610 nM (Uracil nucleotide/cysteinyl leukotriene receptor, long isoform (GPR17, Homo sapiens, UniProt Q13304); calcium mobilization, antagonist; 1321-N1).
The IC50 of `CC(C)Oc1cc(C(=O)N2CCC(N3CCN(C)CC3)CC2)ccc1Nc1ncc2c(n1)N(C1CCCC1)c1ccccc1C(=O)N2C` is reported as 160 ± 8 nM (MAPK7 (Homo sapiens, UniProt Q13164); kinase activity).
The IC50 of `O=C1OC2CC1N(C(=O)c1cc(Cc3n[nH]c(=O)c4ccccc34)ccc1F)C2` (stereo not shown) is reported as 1.44 nM (PARP1 (Homo sapiens, UniProt P09874); enzyme activity; experiment Exp3).
`NC(=O)c1cn(-c2ccc(F)cc2)c2ccc(CN3CCCS(=O)(=O)CC3)cc2c1=O` gave an IC50 of 415 nM (Grm2 (Rattus norvegicus, UniProt P31421); calcium mobilization, negative allosteric modulator).
`N#Cc1ccc2[nH]cc(/C=C/c3ccccc3)c2c1` has an IC50 of over 20000 nM (APP amyloid-beta peptide; Aβ42 oligomerisation, ELISA).
For `COc1cc(N)c2ncccc2c1Cl`, the IC50 was over 15000 nM (Methionine aminopeptidase 2 (Homo sapiens, UniProt P50579); enzyme activity, inhibitor, coupled; together with: Met-Pro-pNA substrate, Mn2+ 10 µM).
The IC50 of `CCn1cc(NCc2ccccc2)c(C(=O)O)n1` is reported as 262000 nM (TDO2 (Homo sapiens, UniProt P48775); together with: L-tryptophan 400 µM).
With `N#Cc1ccccc1N1CCN(C(=O)CCCn2c(=S)[nH]c3ccccc3c2=O)CC1` the IC50 was 7500 nM (Estrogen receptor (ESR1, Homo sapiens, UniProt P03372); reporter gene, coactivator binding inhibitor, luciferase reporter; HEC-1 cells transfected with ERα; toxicity up to 50% at 20 µM, together with: estradiol 1 nM).
With `C=CC(=O)Nc1cc(Nc2ncnc(Nc3ccccc3F)n2)c(OC)cc1N(C)CCN(C)C` the IC50 was 17 nM (EGFR (Homo sapiens, UniProt P00533); EGFR phosphorylation, inhibitor, MSD, refers to: phospho-EGFR; A-431).
With `CCOc1ccc(S(=O)(=O)NC(=O)Cc2ccc(C)cc2)cc1Br` the IC50 was 1880 nM (CGAS (Homo sapiens, UniProt Q8N884); enzyme activity, inhibitor, ATP depletion).
`O=C([C@H]1O[C@H](O[C@H]2[C@H](O[C@@H]3O[C@H](C(=O)N4CCCC4)[C@@H](O[C@H]4O[C@@H](CNS(=O)(=O)O)[C@@H](OCc5ccc6ccccc6c5)[C@H](OCc5ccc6ccccc6c5)[C@H]4NS(=O)(=O)O)[C@H]3OCc3ccc4ccccc4c3)[C@@H](OCc3ccc4ccccc4c3)[C@H](NS(=O)(=O)O)C[C@@H]2NS(=O)(=O)O)[C@H](NS(=O)(=O)O)[C@@H](OCc2ccc3ccccc3c2)[C@@H]1OCc1ccc2ccccc2c1)N1CCCC1` gave an IC50 of under 25 nM (Heparanase (HPSE, Homo sapiens, UniProt Q9Y251); enzyme activity, inhibitor, TR-FRET).
The IC50 of `Clc1ccc(C2(c3ccc(-c4ccncc4)cc3)CCNCC2)cc1` is reported as 530 nM (LATS1 (Homo sapiens, UniProt O95835); kinase activity, inhibitor, radiometric HotSpot; together with: ATP 10 µM).
`O=C(O)CC[C@H](NC(=O)c1cc(C(=O)O)cc([C@H]2CCN[C@@H]2C(=O)O)c1)C(=O)O` has an IC50 of 2610 ± 70 nM (Glutamate receptor ionotropic, NMDA 2C, with GluN1 (Rattus norvegicus, UniProt Q00961); ion current, antagonist, two-electrode voltage clamp; Xenopus oocytes; GluN1/GluN2C, together with: glycine 100 µM and glutamate 1 µM).
`NC1CCN(Cc2ccn3ncnc(Nc4cccc(-c5noc(C6CCCCC6)n5)c4)c23)CC1` has an IC50 of 11 nM (AAK1 (Homo sapiens, UniProt Q2M2I8)).

Excerpt of the above:
With `C=CC(=O)Nc1cc(Nc2ncnc(Nc3ccccc3F)n2)c(OC)cc1N(C)CCN(C)C` the IC50 was 17 nM (EGFR (Homo sapiens, UniProt P00533); EGFR phosphorylation, inhibitor, MSD, refers to: phospho-EGFR; A-431).
`O=C([C@H]1O[C@H](O[C@H]2[C@H](O[C@@H]3O[C@H](C(=O)N4CCCC4)[C@@H](O[C@H]4O[C@@H](CNS(=O)(=O)O)[C@@H](OCc5ccc6ccccc6c5)[C@H](OCc5ccc6ccccc6c5)[C@H]4NS(=O)(=O)O)[C@H]3OCc3ccc4ccccc4c3)[C@@H](OCc3ccc4ccccc4c3)[C@H](NS(=O)(=O)O)C[C@@H]2NS(=O)(=O)O)[C@H](NS(=O)(=O)O)[C@@H](OCc2ccc3ccccc3c2)[C@@H]1OCc1ccc2ccccc2c1)N1CCCC1` gave an IC50 of under 25 nM (Heparanase (HPSE, Homo sapiens, UniProt Q9Y251); enzyme activity, inhibitor, TR-FRET).
For `COc1cc(N)c2ncccc2c1Cl`, the IC50 was over 15000 nM (Methionine aminopeptidase 2 (Homo sapiens, UniProt P50579); enzyme activity, inhibitor, coupled; together with: Met-Pro-pNA substrate, Mn2+ 10 µM).
